Results from different studies.
Lines come from different studies, so protocols differ. ± gives the spread as reported.
FFAR3: Free fatty acid receptor 3 (FFAR3, Homo sapiens, UniProt O14843)
Sequence of UniProt O14843 (whole entry, looked up): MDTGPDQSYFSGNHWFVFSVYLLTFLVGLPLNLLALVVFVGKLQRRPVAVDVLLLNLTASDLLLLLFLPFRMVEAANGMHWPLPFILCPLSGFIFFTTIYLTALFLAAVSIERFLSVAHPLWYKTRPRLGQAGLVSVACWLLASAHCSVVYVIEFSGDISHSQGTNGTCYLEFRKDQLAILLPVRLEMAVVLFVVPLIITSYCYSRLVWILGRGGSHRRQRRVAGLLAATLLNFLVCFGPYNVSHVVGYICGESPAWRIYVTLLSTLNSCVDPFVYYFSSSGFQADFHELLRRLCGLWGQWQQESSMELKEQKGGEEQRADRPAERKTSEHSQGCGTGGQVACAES
NR1H2 ligand-binding domain: Oxysterols receptor LXR-beta, ligand-binding domain (NR1H2, Homo sapiens, UniProt P55055)
Sequence of UniProt P55055 (whole entry, looked up): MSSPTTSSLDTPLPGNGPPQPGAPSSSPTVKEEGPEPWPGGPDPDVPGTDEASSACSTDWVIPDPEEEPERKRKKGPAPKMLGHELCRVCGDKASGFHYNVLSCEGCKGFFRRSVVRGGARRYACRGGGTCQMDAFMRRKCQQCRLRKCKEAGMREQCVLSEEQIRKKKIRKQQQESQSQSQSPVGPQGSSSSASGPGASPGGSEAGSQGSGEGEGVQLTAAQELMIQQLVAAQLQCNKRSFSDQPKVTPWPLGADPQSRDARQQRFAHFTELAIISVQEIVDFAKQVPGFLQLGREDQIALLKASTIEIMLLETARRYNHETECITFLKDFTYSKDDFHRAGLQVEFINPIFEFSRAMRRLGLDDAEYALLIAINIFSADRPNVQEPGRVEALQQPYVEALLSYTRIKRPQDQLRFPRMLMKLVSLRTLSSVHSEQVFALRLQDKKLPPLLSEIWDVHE
PTH1R: Parathyroid hormone/parathyroid hormone-related peptide receptor (PTH1R, Homo sapiens, UniProt Q03431)
Sequence of UniProt Q6W5P4 (whole entry, unmodified, looked up): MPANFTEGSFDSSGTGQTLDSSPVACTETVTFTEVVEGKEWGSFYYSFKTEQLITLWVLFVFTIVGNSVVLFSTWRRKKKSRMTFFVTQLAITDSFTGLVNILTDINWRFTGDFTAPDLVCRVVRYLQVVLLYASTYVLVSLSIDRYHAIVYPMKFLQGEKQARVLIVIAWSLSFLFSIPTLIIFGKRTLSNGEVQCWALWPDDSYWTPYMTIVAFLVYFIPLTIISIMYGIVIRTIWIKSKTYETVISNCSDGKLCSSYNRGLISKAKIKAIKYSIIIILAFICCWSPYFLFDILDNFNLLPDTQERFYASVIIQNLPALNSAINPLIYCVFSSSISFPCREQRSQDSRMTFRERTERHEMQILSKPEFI
Sequence of UniProt Q03431 (whole entry, looked up): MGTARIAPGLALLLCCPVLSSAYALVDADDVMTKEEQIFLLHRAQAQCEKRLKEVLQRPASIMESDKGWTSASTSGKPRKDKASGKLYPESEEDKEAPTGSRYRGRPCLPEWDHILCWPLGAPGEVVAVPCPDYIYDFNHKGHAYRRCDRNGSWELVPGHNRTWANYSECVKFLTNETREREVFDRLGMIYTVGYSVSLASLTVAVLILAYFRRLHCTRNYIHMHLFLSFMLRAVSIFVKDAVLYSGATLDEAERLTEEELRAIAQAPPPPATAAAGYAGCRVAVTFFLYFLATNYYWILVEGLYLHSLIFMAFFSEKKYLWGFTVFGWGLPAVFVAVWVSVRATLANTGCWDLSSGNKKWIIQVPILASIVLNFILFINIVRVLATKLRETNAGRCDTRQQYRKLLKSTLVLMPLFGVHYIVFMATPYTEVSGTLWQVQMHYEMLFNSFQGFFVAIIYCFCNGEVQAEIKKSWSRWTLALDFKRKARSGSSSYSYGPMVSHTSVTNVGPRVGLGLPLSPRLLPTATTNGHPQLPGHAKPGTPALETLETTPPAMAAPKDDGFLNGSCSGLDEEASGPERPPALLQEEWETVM
Sequence of UniProt Q9R1W5 (whole entry, looked up): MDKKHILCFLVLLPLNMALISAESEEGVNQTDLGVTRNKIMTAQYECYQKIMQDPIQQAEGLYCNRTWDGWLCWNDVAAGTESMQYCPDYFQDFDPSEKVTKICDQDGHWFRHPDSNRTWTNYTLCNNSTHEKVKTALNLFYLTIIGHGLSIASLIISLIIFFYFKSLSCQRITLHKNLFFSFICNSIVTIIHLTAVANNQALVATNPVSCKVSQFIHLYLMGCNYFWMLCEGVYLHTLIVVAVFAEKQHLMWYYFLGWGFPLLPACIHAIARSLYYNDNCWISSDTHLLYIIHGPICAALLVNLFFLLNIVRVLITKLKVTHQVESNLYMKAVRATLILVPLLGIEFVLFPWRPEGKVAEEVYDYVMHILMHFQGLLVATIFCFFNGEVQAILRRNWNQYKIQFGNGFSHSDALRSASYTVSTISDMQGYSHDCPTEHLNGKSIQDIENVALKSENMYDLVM
Sequence of UniProt O35659 (whole entry, looked up): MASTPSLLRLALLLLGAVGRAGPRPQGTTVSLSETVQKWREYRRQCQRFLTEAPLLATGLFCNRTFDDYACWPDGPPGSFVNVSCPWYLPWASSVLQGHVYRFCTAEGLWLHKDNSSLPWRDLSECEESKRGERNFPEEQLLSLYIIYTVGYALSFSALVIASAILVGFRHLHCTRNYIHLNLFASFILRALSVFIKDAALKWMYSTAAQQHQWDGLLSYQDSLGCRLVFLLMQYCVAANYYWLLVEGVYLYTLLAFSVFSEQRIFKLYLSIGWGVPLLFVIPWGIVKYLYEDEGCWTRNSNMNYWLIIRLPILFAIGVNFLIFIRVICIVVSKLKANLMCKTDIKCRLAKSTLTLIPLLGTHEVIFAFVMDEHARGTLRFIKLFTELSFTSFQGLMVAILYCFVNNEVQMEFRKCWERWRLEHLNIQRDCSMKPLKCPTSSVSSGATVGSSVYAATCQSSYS
Sequence of UniProt P43119 (whole entry, looked up): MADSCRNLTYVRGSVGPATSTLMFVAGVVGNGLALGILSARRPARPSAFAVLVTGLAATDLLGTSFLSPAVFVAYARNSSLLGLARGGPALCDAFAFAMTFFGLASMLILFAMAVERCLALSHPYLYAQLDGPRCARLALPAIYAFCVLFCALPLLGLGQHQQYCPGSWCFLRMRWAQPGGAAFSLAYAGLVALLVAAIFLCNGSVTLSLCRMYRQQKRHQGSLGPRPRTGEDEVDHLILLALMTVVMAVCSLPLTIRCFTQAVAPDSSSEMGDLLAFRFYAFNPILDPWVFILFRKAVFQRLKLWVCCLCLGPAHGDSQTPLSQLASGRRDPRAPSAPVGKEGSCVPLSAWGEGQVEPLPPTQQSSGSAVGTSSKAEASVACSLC
Sequence of UniProt Q9WUP1 (whole entry, looked up): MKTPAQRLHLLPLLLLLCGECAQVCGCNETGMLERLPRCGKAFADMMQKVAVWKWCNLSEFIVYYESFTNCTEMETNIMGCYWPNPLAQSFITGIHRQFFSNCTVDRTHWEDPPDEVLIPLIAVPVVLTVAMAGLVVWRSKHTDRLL
Sequence of UniProt P21761 (whole entry, looked up): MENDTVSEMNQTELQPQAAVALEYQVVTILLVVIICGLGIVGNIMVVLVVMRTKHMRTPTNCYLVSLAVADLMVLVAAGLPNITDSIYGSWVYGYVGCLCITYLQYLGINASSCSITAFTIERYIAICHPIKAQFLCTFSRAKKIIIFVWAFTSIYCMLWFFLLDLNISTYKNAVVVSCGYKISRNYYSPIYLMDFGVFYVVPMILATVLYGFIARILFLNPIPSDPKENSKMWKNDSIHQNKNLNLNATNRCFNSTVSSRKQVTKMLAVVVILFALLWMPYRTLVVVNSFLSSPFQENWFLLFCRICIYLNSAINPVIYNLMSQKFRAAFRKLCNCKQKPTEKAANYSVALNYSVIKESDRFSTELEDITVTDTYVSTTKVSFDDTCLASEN
Sequence of UniProt P41149 (whole entry, looked up): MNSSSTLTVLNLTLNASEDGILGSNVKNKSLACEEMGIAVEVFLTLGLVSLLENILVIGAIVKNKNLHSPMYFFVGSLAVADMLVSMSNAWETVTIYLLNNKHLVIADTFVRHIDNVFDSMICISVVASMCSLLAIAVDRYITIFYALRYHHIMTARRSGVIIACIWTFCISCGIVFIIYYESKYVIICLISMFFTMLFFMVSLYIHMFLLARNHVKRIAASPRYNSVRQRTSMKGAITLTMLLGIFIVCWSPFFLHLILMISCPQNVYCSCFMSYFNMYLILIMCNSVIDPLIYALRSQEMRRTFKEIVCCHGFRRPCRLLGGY
Sequence of UniProt P30969 (whole entry, looked up): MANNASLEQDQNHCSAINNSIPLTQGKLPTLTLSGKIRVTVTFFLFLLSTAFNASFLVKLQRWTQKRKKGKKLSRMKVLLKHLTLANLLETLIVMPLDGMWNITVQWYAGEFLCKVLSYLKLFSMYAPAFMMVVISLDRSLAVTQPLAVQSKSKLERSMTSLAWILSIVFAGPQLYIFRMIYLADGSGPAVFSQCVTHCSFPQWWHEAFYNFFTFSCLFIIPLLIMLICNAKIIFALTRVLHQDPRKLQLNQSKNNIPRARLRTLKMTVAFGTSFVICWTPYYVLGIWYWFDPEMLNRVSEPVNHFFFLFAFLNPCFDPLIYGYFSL

The EC50 of CC[C@H](C)[C@H](NC(=O)[C@H](CCC(N)=O)NC(=O)[C@H](Cc1c[nH]cn1)NC(=O)[C@H](C)NC(=O)[C@H](CC(C)C)NC(=O)[C@H](CCCCN)NC(=O)[C@H](CCC(N)=O)NC(=O)[C@@H](NC(=O)[C@@H](NC(=O)[C@@H]1CSSC[C@H](NC(=O)CNC(=O)[C@H](Cc2ccccc2)NC(=O)[C@H](CO)NC(=O)[C@H](CCCNC(=N)N)NC(=O)[C@H](CC(C)C)NC(=O)CNC(=O)[C@H](CCC(N)=O)NC(=O)[C@H](Cc2ccccc2)NC(=O)[C@H](CC(N)=O)NC(=O)[C@H](CC(N)=O)NC(=O)[C@H](CCSC)NC(=O)[C@H](CO)NC(=O)[C@H](CCC(N)=O)NC(=O)[C@H](CCCNC(=N)N)NC(=O)[C@@H](N)Cc2ccc(O)cc2)C(=O)N[C@@H](CCCNC(=N)N)C(=O)N[C@@H](Cc2ccccc2)C(=O)NCC(=O)N[C@@H]([C@@H](C)O)C(=O)N1)[C@@H](C)O)C(C)C)C(=O)N[C@@H](Cc1ccc(O)cc1)C(=O)N[C@@H](CCC(N)=O)C(=O)N[C@@H](Cc1ccccc1)C(=O)N[C@H](C(=O)N[C@@H](CC(=O)O)C(=O)N[C@@H](CCCCN)C(=O)N[C@@H](CC(=O)O)C(=O)N[C@@H](CCCCN)C(=O)N[C@@H](CC(=O)O)C(=O)N[C@@H](CC(N)=O)C(=O)N[C@H](C(=O)N[C@@H](C)C(=O)N1CCC[C@H]1C(=O)N[C@@H](CCCNC(=N)N)C(=O)N[C@@H](CO)C(=O)N[C@@H](CCCCN)C(=O)N[C@H](C(=O)N[C@@H](CO)C(=O)N1CCC[C@H]1C(=O)N[C@@H](CCC(N)=O)C(=O)NCC(=O)N[C@@H](Cc1ccc(O)cc1)C(N)=O)[C@@H](C)CC)C(C)C)[C@@H](C)O is reported as 0.55 nM (Calcrl/Ramp3 (Mus musculus, UniProt Q9R1W5+Q9WUP1); cAMP production, agonist; COS-7, transfected; 15 min, 37 °C, added: IBMX 1 mM).
With CSCC[C@H](NC(=O)[C@H](CC(C)C)NC(=O)[C@H](Cc1cnc[nH]1)NC(=O)CNC(=O)[C@@H](NC(=O)[C@H](C)NC(=O)[C@H](Cc1c[nH]c2ccccc12)NC(=O)[C@H](CCC(N)=O)NC(=O)[C@H](CC(N)=O)NC(=O)CNC(=O)[C@H](CC(C)C)NC(=O)[C@H](CCCN=C(N)N)NC(=O)[C@H](CCC(N)=O)NC(=O)[C@@H]1CCC(=O)N1)C(C)C)C(N)=O the EC50 was 6.5 ± 1 nM (ERBB3 (Homo sapiens, UniProt P21860); receptor phosphorylation, inhibitor, Western blot; H441; 3 min).
The EC50 of N=C(N)NCCC[C@H](NC(=O)[C@H](Cc1ccccc1)NC(=O)[C@@H](N)CO)C(=O)N[C@@H](CC(N)=O)C(N)=O is reported as > 10000 nM (NPSR1 (Homo sapiens, UniProt Q6W5P4); cAMP, agonist, TR-FRET).
O=C(O)C1CC1 gave an EC50 of 107000 nM (FFAR3; agonist).
The EC50 of Cc1cnc(C(=O)N[C@@H](Cc2cn(C(C)C)cn2)C(=O)N2CCC[C@H]2C(N)=O)cn1 is reported as 12 nM (Thyrotropin-releasing hormone receptor (Mus musculus, UniProt P21761); calcium signal, agonist, fluorescence).
NCCOB(c1ccccc1)c1ccccc1 gave an EC50 of 51000 ± 11000 nM (Trpv3 (Mus musculus, UniProt Q8K424); ion current, agonist, inside-out patch clamp; with EGTA).
The EC50 of CN(C(=O)c1c(F)cccc1Cl)c1ccc(C(O)(C(F)(F)F)C(F)(F)F)cc1 is reported as 400 ± 10 nM (NR1H2 ligand-binding domain; agonist; concentration not given).
CCOc1ccccc1-c1nnc2n1N=C(c1ccc(NC(=O)C(C)C)cc1)CS2 has an EC50 of > 10000 nM (CXCR4 (Homo sapiens, UniProt P61073); β-arrestin recruitment, agonist).
For CC(C)=CC(=O)O, the EC50 was 229000 nM (FFAR3; agonist).
CN(C(=O)C1CC1)c1ccc(C(O)(C(F)(F)F)C(F)(F)F)cc1 gave an EC50 of > 10000 nM (NR1H2 ligand-binding domain; agonist; concentration not given).
With CC(C)CC(=O)O the EC50 was 741000 nM (FFAR3; agonist).
CC[C@H](C)[C@H](NC(=O)[C@H](CC(N)=O)NC(=O)[C@H](CC(N)=O)NC(=O)[C@H](CCCNC(=N)N)NC(=O)[C@H](CC(N)=O)NC(=O)[C@H](CCCNC(=N)N)NC(=O)[C@H](CCCCN)NC(=O)[C@@H](NC(=O)[C@H](CC(N)=O)NC(=O)[C@H](CCSC)NC(=O)[C@H](CC(C)C)NC(=O)[C@H](Cc1c[nH]c2ccccc12)NC(=O)[C@H](CCC(N)=O)NC(=O)[C@@H](NC(=O)[C@H](Cc1ccccc1)NC(=O)[C@H](CC(=O)O)NC(=O)[C@H](CCC(N)=O)NC(=O)[C@H](C)NC(=O)[C@H](CCCNC(=N)N)NC(=O)[C@H](CCCNC(=N)N)NC(=O)[C@H](CO)NC(=O)[C@H](CC(=O)O)NC(=O)[C@H](CC(C)C)NC(=O)[C@H](Cc1ccc(O)cc1)NC(=O)[C@H](CCCCN)NC(=O)[C@H](CO)NC(=O)[C@H](Cc1ccc(O)cc1)NC(=O)[C@H](CC(=O)O)NC(=O)[C@H](CO)NC(=O)[C@@H](NC(=O)[C@H](Cc1ccccc1)NC(=O)[C@@H](NC(=O)CNC(=O)[C@H](CCC(=O)O)NC(=O)[C@H](CO)NC(=O)[C@@H](N)Cc1c[nH]cn1)[C@@H](C)O)[C@@H](C)O)C(C)C)[C@@H](C)O)C(=O)N[C@@H](C)C(=O)O gave an EC50 of 3.9 nM (Glucagon-like peptide 1 receptor (Mus musculus, UniProt O35659); cAMP, agonist, TR-FRET).
C#CC[C@H](NC(=O)[C@H](Cc1ccccc1)NC(=O)[C@H](C)NC(=O)[C@H](CC(N)=O)NC(=O)[C@H](Cc1c[nH]c2ccccc12)NC(=O)[C@H](CCCNC(=N)N)NC(=O)[C@@H](Cc1ccccc1)NC(=O)[C@H](Cc1c[nH]cn1)NC(=O)[C@H](CN=[N+]=[N-])NC(=O)[C@@H](N)Cc1ccc(O)cc1)C(=O)N[C@@H](Cc1ccc(O)cc1)C(N)=O gave an EC50 of 20 ± 3.8 nM (Melanocortin receptor 5 (Mus musculus, UniProt P41149); agonist).
With NC(=O)C[C@H](NC(=O)[C@H](CCCCNC(=O)C(F)(F)F)NC(=O)[C@H](Cc1ccccc1)NC(=O)[C@@H](N)CO)C(N)=O the EC50 was 563 nM (NPSR1 (Homo sapiens, UniProt Q6W5P4, N107I); calcium signal, agonist, fluorescence).
O=C(O)COc1cccc(NC(=O)c2cc(-c3cccc(F)c3)ccc2F)c1 gave an EC50 of > 10000 nM (PTGIR (Homo sapiens, UniProt P43119); calcium signal, agonist, fluorescence).
N=C(N)NCCC[C@@H](NC(=O)[C@H](Cc1c[nH]cn1)NC(=O)[C@H](CO)NC(=O)[C@H](Cc1c[nH]c2ccccc12)NC(=O)[C@H](Cc1c[nH]cn1)NC(=O)[C@@H]1CCC(=O)N1)C(=O)N[C@@H](Cc1c[nH]c2ccccc12)C(=O)N[C@@H](Cc1ccc(O)cc1)C(=O)N1CCC[C@H]1C(=O)NCC(N)=O gave an EC50 of 1.6 ± 0.2 nM (Gonadotropin-releasing hormone receptor (Rattus norvegicus, UniProt P30969); inositol phosphate accumulation, agonist; HEK293 expressing Gonadotropin-releasing hormone receptor; 60 min, 37 °C, added: 10 mM LiCl).
CC[C@H](C)[C@H](NC(=O)[C@H](CCC(=O)O)NC(=O)[C@H](CO)NC(=O)[C@@H](NC(=O)[C@@H](N)CO)C(C)C)C(=O)N[C@@H](CCC(N)=O)C(=O)N[C@@H](CC(C)C)C(=O)N[C@@H](CCSC)C(=O)N[C@@H](Cc1c[nH]cn1)C(=O)N[C@@H](CC(N)=O)C(=O)N[C@@H](CC(C)C)C(=O)NCC(=O)N[C@@H](CCCCN)C(=O)N[C@@H](Cc1c[nH]cn1)C(=O)N[C@@H](CC(C)C)C(=O)N[C@@H](CC(N)=O)C(=O)N[C@@H](CO)C(=O)N[C@@H](CCSC)C(=O)N[C@@H](CCC(=O)O)C(=O)N[C@@H](CCCNC(=N)N)C(=O)N[C@H](C(=O)N[C@@H](CCC(=O)O)C(=O)N[C@@H](Cc1c[nH]c2ccccc12)C(=O)N[C@@H](CC(C)C)C(=O)N[C@@H](CCCNC(=N)N)C(=O)N[C@@H](CCCCN)C(=O)N[C@@H](CCCCN)C(=O)N[C@@H](CC(C)C)C(=O)N[C@@H](CCC(N)=O)C(=O)N[C@@H](CC(=O)O)C(=O)N[C@H](C(=O)N[C@@H](Cc1c[nH]cn1)C(=O)N[C@@H](CC(N)=O)C(=O)N[C@@H](Cc1ccccc1)C(=O)N[C@H](C(=O)N[C@@H](C)C(=O)N[C@@H](CC(C)C)C(=O)O)C(C)C)C(C)C)C(C)C gave an EC50 of 0.933 nM (PTH1R; reporter gene, agonist, luciferase).
For CSCC[C@H](NC(=O)[C@H](CO)NC(=O)[C@H](CC(N)=O)NC(=O)[C@H](CC(C)C)NC(=O)[C@H](CO)NC(=O)[C@H](CCCCN)NC(=O)CNC(=O)[C@H](CCCCN)NC(=O)[C@H](CC(=O)O)NC(=O)[C@H](Cc1c[nH]cn1)NC(=O)[C@H](CC(C)C)NC(=O)[C@H](CC(C)C)NC(=O)[C@H](CCC(N)=O)NC(=O)[C@H](Cc1c[nH]cn1)NC(=O)[C@H](CCC(=O)O)NC(=O)[C@H](CO)NC(=O)[C@@H](NC(=O)[C@H](C)N)C(C)C)C(=O)N[C@@H](CCC(=O)O)C(=O)N[C@@H](CCCNC(=N)N)C(=O)N[C@H](C(=O)N[C@@H](CCC(=O)O)C(=O)N[C@@H](Cc1c[nH]c2ccccc12)C(=O)N[C@@H](CC(C)C)C(=O)N[C@@H](CCCNC(=N)N)C(=O)N[C@@H](CCCCN)C(=O)N[C@@H](CCCCN)C(=O)N[C@@H](CC(C)C)C(=O)N[C@@H](CCC(N)=O)C(=O)N[C@@H](CC(=O)O)C(=O)N[C@H](C(=O)N[C@@H](Cc1c[nH]cn1)C(=O)N[C@@H](CC(N)=O)C(=O)N[C@@H](Cc1ccccc1)C(=O)N[C@@H](CCCCNC(=O)c1ccc2c(c1)C1(OC2=O)c2ccc(N(C)C)cc2Oc2cc(N(C)C)ccc21)C(N)=O)C(C)C)C(C)C, the EC50 was 0.39 ± 0.1 nM (PTH1R; cAMP formation, agonist, GloSensor; HEK293 GP2.3; 15 min).

Some of these lines once more:
O=C(O)COc1cccc(NC(=O)c2cc(-c3cccc(F)c3)ccc2F)c1 gave an EC50 of > 10000 nM (PTGIR (Homo sapiens, UniProt P43119); calcium signal, agonist, fluorescence).
N=C(N)NCCC[C@@H](NC(=O)[C@H](Cc1c[nH]cn1)NC(=O)[C@H](CO)NC(=O)[C@H](Cc1c[nH]c2ccccc12)NC(=O)[C@H](Cc1c[nH]cn1)NC(=O)[C@@H]1CCC(=O)N1)C(=O)N[C@@H](Cc1c[nH]c2ccccc12)C(=O)N[C@@H](Cc1ccc(O)cc1)C(=O)N1CCC[C@H]1C(=O)NCC(N)=O gave an EC50 of 1.6 ± 0.2 nM (Gonadotropin-releasing hormone receptor (Rattus norvegicus, UniProt P30969); inositol phosphate accumulation, agonist; HEK293 expressing Gonadotropin-releasing hormone receptor; 60 min, 37 °C, added: 10 mM LiCl).
CC[C@H](C)[C@H](NC(=O)[C@H](CCC(=O)O)NC(=O)[C@H](CO)NC(=O)[C@@H](NC(=O)[C@@H](N)CO)C(C)C)C(=O)N[C@@H](CCC(N)=O)C(=O)N[C@@H](CC(C)C)C(=O)N[C@@H](CCSC)C(=O)N[C@@H](Cc1c[nH]cn1)C(=O)N[C@@H](CC(N)=O)C(=O)N[C@@H](CC(C)C)C(=O)NCC(=O)N[C@@H](CCCCN)C(=O)N[C@@H](Cc1c[nH]cn1)C(=O)N[C@@H](CC(C)C)C(=O)N[C@@H](CC(N)=O)C(=O)N[C@@H](CO)C(=O)N[C@@H](CCSC)C(=O)N[C@@H](CCC(=O)O)C(=O)N[C@@H](CCCNC(=N)N)C(=O)N[C@H](C(=O)N[C@@H](CCC(=O)O)C(=O)N[C@@H](Cc1c[nH]c2ccccc12)C(=O)N[C@@H](CC(C)C)C(=O)N[C@@H](CCCNC(=N)N)C(=O)N[C@@H](CCCCN)C(=O)N[C@@H](CCCCN)C(=O)N[C@@H](CC(C)C)C(=O)N[C@@H](CCC(N)=O)C(=O)N[C@@H](CC(=O)O)C(=O)N[C@H](C(=O)N[C@@H](Cc1c[nH]cn1)C(=O)N[C@@H](CC(N)=O)C(=O)N[C@@H](Cc1ccccc1)C(=O)N[C@H](C(=O)N[C@@H](C)C(=O)N[C@@H](CC(C)C)C(=O)O)C(C)C)C(C)C)C(C)C gave an EC50 of 0.933 nM (PTH1R; reporter gene, agonist, luciferase).
